Assay results from different studies.
Protocols differ between the studies behind these lines.

SMILES = C=C(C)[C@@H]1CC[C@]2(C(N)=O)CC[C@]3(C)[C@H](CC[C@@H]4[C@@]5(C)CCCNC(C)(C)[C@@H]5CC[C@]43C)[C@@H]12; organism = Human papillomavirus 11; assay = viral replication; test system = C-33 A; scale = reference: CC50 over EC50; selectivity index = < 4
SMILES = CC1(CCCCCCCCCCCCOCCCOP(=O)(O)CO[C@H](CO)Cn2ccc(N)nc2=O)COC1; organism = human gammaherpesvirus 4; assay = qPCR; test system = Akata; scale = reference: CC50 over EC50; selectivity index = > 13
SMILES = CC1CCC2(C(=O)OCc3ccccc3)CCC3(C)C(=CCC4C5(C)CCC(OC6OC(CO)C(OC7OC(C)C(O)C(O)C7O)C(O)C6OC6OC(C)C(O)C(O)C6O)C(C)(C)C5CCC43C)C2C1C (centres unmarked); organism = PRRSV; test system = MARC-145, GD-XH; scale = reference: CC50 over EC50; selectivity index = 16
SMILES = CC(C)=CCCC1=CCC2=C(C1)C(=O)c1ccccc1C2=O; organism = Leishmania infantum; test system = intracellular amastigotes, ex vivo mouse splenic explants; scale = reference: HepG2 CC50 over amastigote EC50; selectivity index = 2.7
SMILES = C=C(C)[C@@H]1CC[C@]2(C(=O)n3ccnc3)CC[C@]3(C)[C@H](CC[C@@H]4[C@@]5(C)CCCNC(C)(C)[C@@H]5CC[C@]43C)[C@@H]12; organism = Human papillomavirus 11; assay = viral replication; test system = C-33 A; scale = reference: CC50 over EC50; selectivity index = 3
SMILES = CCCCCOC(=O)C12CCC(C)C(C)C1C1=CCC3C4(C)CCC(OC5OC(CO)C(OC6OC(C)C(O)C(O)C6O)C(O)C5OC5OC(C)C(O)C(O)C5O)C(C)(C)C4CCC3(C)C1(C)CC2 (centres unmarked); organism = PRRSV; test system = MARC-145, GD-XH; scale = reference: CC50 over EC50; selectivity index = 13
SMILES = CC1(CCCCCCCCCCOCCCOP(=O)(O)CO[C@H](CO)Cn2ccc(N)nc2=O)COC1; organism = human gammaherpesvirus 4; assay = qPCR; test system = Akata; scale = reference: CC50 over EC50; selectivity index = > 5
SMILES = CCOC1=CC(=O)c2cc3c(cc2C1=O)CCCC3(C)C; organism = Leishmania infantum; test system = promastigotes; scale = reference: HepG2 CC50 over promastigote EC50; selectivity index = 12.4

For quick reference, copied from above:
SMILES = CC1CCC2(C(=O)OCc3ccccc3)CCC3(C)C(=CCC4C5(C)CCC(OC6OC(CO)C(OC7OC(C)C(O)C(O)C7O)C(O)C6OC6OC(C)C(O)C(O)C6O)C(C)(C)C5CCC43C)C2C1C (centres unmarked); organism = PRRSV; test system = MARC-145, GD-XH; scale = reference: CC50 over EC50; selectivity index = 16
